{"data": "Assay results from different studies", "note": "Compare with care: the assays were run in different laboratories. Numbers after ± are the reported error."}
{"Compound": "C[C@@H](c1ccn(Cc2ccc(Cl)cc2Cl)n1)[C@](O)(Cn1cnnn1)c1ccc(F)cc1F", "organism": "Candidozyma auris", "test": "growth", "system": "888 drug-resistant isolate", "setting": "24 h, 30 °C, ≥50% inhibition", "MIC": "64 µg/mL"}
{"Compound": "CC[C@H](C)[C@H](NC(=O)[C@H](C)NC(=O)CNC(=O)[C@@H](N)CCSC)C(=O)N[C@@H](C)C(=O)N[C@@H](CCCCN)C(=O)N[C@@H](CCCNC(=N)N)C(=O)N[C@H](C(=O)N[C@@H](C)C(=O)N[C@@H](CCCCN)C(=O)N[C@@H](Cc1ccccc1)C(=O)NCC(=O)N[C@@H](Cc1c[nH]c2ccccc12)C(=O)N1CCC[C@H]1C(=O)N[C@@H](Cc1ccccc1)C(=O)N[C@H](C(=O)N[C@@H](CCCCN)C(=O)N[C@@H](CCCCN)C(=O)N[C@@H](Cc1ccccc1)C(=O)N[C@@H](Cc1ccc(O)cc1)C(=O)N[C@@H](CCCCN)C(=O)N[C@@H](CCC(N)=O)C(=O)N[C@H](C(=O)N[C@@H](CCSC)C(=O)N[C@@H](CCC(N)=O)C(=O)N[C@@H](Cc1ccccc1)C(=O)N[C@H](C(=O)NCC(=O)N[C@@H](CCC(N)=O)C(=O)NCC(=O)N[C@@H](Cc1c[nH]c2ccccc12)C(=O)N[C@H](C(=O)N[C@H](C(=O)N[C@@H](CC(=O)O)C(=O)N[C@@H](CCC(N)=O)C(=O)N[C@H](C(=O)N[C@@H](CCC(=O)O)C(=O)N[C@@H](CCCCN)C(=O)N[C@@H](Cc1c[nH]c2ccccc12)C(=O)N[C@@H](CC(C)C)C(=O)N[C@@H](CCCCN)C(=O)N[C@@H](CCCNC(=N)N)C(=O)N[C@@H](Cc1c[nH]cn1)C(=O)O)[C@@H](C)CC)[C@@H](C)CC)[C@@H](C)O)[C@@H](C)CC)[C@@H](C)CC)[C@@H](C)CC)C(C)C", "organism": "Bacillus subtilis subsp. subtilis", "system": "ATCC 23857", "setting": "10 h", "MIC": "22.2 ± 0.1 µM"}
{"Compound": "C[N+]1=C2C(c3ccccc3)=[N+]([O-])c3ccccc3N2CCC1", "organism": "Clostridioides difficile", "test": "microbial growth", "system": "ATCC43255", "MIC": "32 µg/mL"}
{"Compound": "C=C(NC(=O)C(=C)NC(=O)c1csc(C2=NC3c4csc(n4)C4NC(=O)c5csc(n5)C(C(C)(O)C(C)O)NC(=O)C5CSC(=N5)C(=CC)NC(=O)C(C(C)O)NC(=O)c5csc(n5)C3(CC2)NC(=O)C(C)NC(=O)C(=C)NC(=O)C(Cc2ccccc2)NC(=O)C(C(C)CC)NC2C=Cc3c(C(C)O)cc(nc3C2O)C(=O)OC4C)n1)C(N)=O (stereo not drawn)", "organism": "Bacillus sp.", "test": "broth microdilution", "system": "ATCC 27859", "setting": "18 h, 37 °C", "MIC": "0.087 µg/mL"}
{"Compound": "CC(C)c1ccc(Cn2ccc([C@H](C)[C@](O)(Cn3cnnn3)c3ccc(F)cc3F)n2)cc1", "organism": "Candidozyma auris", "test": "growth", "system": "789 drug-resistant isolate", "setting": "24 h, 30 °C, ≥50% inhibition", "MIC": "2 µg/mL"}
{"Compound": "CC(C)C[C@@H]1NC(=O)[C@H](C)NC(=O)[C@H](NC(=O)[C@H](CO)NC(=O)[C@@H](CCCCN)NC(=O)[C@@H](CC(C)C)NC(=O)[C@@H](N)Cc2ccccc2)[C@H](C(N)=O)OC(=O)[C@H](C)NC1=O", "organism": "Bacillus subtilis Staphylococcus epidermidis", "system": "ATCC 14990", "setting": "tested as TFA salt", "MIC": "32 µg/mL"}
{"Compound": "CCCCCCCc1ccc(NC(=O)CCCN(C)[C@H](C(N)=O)[C@H](O[C@@H]2O[C@H](CN)[C@@H](O)[C@H]2O)[C@H]2O[C@@H](n3ccc(=O)[nH]c3=O)[C@H](O)[C@@H]2O)cc1", "organism": "Clostridioides difficile", "test": "microbial growth", "system": "ATCC43596", "MIC": "25 µg/mL"}
{"Compound": "CC[C@H](C)[C@H](NC(=O)[C@H](CO)NC(=O)[C@H](CO)NC(=O)[C@H](Cc1ccccc1)NC(=O)CN)C(=O)N[C@@H](Cc1ccccc1)C(=O)N[C@@H](CCCNC(=N)N)C(=O)NCC(=O)N[C@H](C(=O)N[C@@H](C)C(=O)N[C@@H](CCCCN)C(N)=O)C(C)C", "organism": "Escherichia coli", "system": "ATCC 8739", "setting": "with: 1 mM MgCl2", "MIC": "> 128 µM"}
{"Compound": "CC(C)C[C@@H]1NC(=O)[C@H](C)NC(=O)[C@H](NC(=O)[C@@H](N)COC(=O)[C@@H](C)NC(=O)[C@@H](CC(C)C)NC(=O)[C@@H](N)Cc2ccccc2)[C@H](C(N)=O)OC(=O)[C@H](CC(C)C)NC1=O", "organism": "Bacillus subtilis Staphylococcus epidermidis", "system": "ATCC 14990", "setting": "tested as TFA salt", "MIC": "> 32 µg/mL"}
{"Compound": "CC1=CC2(C)C(=C(C)C3C4CC(C)CC(C)C4C4Oc5ccc(cc5)CC5(O)NC(=O)C(=C(O)C2C43)C5Nc2ncnc3c2ncn3C2OC(CO)C(O)C2O)C1C (stereo not drawn)", "organism": "Staphylococcus aureus, Enterococcus faecalis, Enterococcus faecium", "test": "broth microdilution", "system": "drug-susceptible and drug-resistant", "setting": "range over Gram-positive panel", "MIC": "6.3 to 12.5 µM"}
{"Compound": "CC[C@H](C)[C@H](NC(=O)[C@H](CCCCN)NC(=O)[C@H](CC(N)=O)NC(=O)[C@H](Cc1c[nH]c2ccccc12)NC(=O)[C@H](Cc1ccccc1)NC(=O)[C@H](CCCCN)NC(=O)[C@H](CCCCNC(=N)N)NC(=O)[C@H](CC(C)C)NC(=O)[C@H](Cc1c[nH]c2ccccc12)NC(=O)[C@H](CCCCN)NC(=O)[C@H](CCCCNC(=N)N)NC(=O)[C@H](CC(C)C)NC(=O)CNC(C)=O)C(=O)N[C@@H](CCCCN)C(=O)N[C@@H](CCCCNC(=N)N)C(N)=O", "organism": "Citrobacter freundii", "test": "bacterial growth, broth microdilution", "system": "multidrug-resistant", "MIC": "3.12 µM"}
{"Compound": "CC[C@H](C)[C@@H]1NC(=O)CNC(=O)[C@H](CCCCN)NC(=O)[C@H](C)NC(=O)[C@H](CCC(=O)O)NC(=O)[C@H](Cc2ccccc2)NC(=O)[C@H](CO)NC(=O)[C@H](CC(C)C)NC(=O)[C@H](C(C)C)NC(=O)[C@H](CC(=O)O)NC(=O)[C@@H](NC(=O)[C@@H](NC(=O)[C@@H](N)C(C)C)[C@@H](C)O)CSSC[C@@H]2NC(=O)[C@H](CO)NC(=O)CNC(=O)CNC(=O)[C@H](CCCCN)NC(=O)[C@H](CCCCN)NC(=O)[C@H](CCCNC(=N)N)NC(=O)[C@H](CC(C)C)NC(=O)[C@H](C)NC(=O)[C@H]([C@@H](C)CC)NC(=O)[C@@H]3CSSC[C@@H](C(=O)N[C@@H](CCCNC(=N)N)C(=O)N[C@@H](CC(N)=O)C(=O)O)NC(=O)[C@H](C(C)C)NC(=O)[C@H](CSSC[C@H](NC(=O)[C@H](C)NC(=O)[C@H](CO)NC(=O)[C@H](Cc4c[nH]cn4)NC(=O)[C@H](CC(N)=O)NC(=O)[C@H](C(C)C)NC(=O)[C@H](C)NC1=O)C(=O)N[C@@H](C)C(=O)N[C@@H](CC(C)C)C(=O)N[C@@H](Cc1c[nH]cn1)C(=O)N3)NC(=O)[C@H](C(C)C)NC(=O)CNC(=O)[C@H](CC(N)=O)NC(=O)[C@H](CCC(N)=O)NC2=O", "organism": "Trichosporon beigelii", "test": "broth microdilution", "system": "KCTC 7707", "setting": "28 °C", "MIC": "10 µM"}
{"Compound": "CN[C@@H]1[C@H](O)[C@H](NC)[C@H]2O[C@]3(O)[C@H](O[C@@H]2[C@H]1O)O[C@H](C)C[C@@]3(O)CNCc1ccc(Cl)cc1", "organism": "Streptococcus pneumoniae", "system": "R6", "MIC": "1.6 µg/mL"}
{"Compound": "N#Cc1ccc(-c2c[nH]c(CNC(=O)Nc3ncc(Sc4ccccn4)s3)n2)cc1", "organism": "Bifidobacterium breve", "test": "broth microdilution", "system": "ATCC 11863", "setting": "with: verapamil 50 µg/mL", "MIC": "> 128 µM"}
{"Compound": "CN[C@@H]1[C@H](O)[C@H](NC)[C@H]2O[C@]3(O)[C@H](O[C@@H]2[C@H]1O)O[C@H](C)C[C@@]3(O)CNCc1ccc(OC(F)(F)F)cc1", "organism": "Streptococcus pneumoniae", "system": "OVA2 drug resistant", "MIC": "6 µg/mL"}
{"Compound": "C[C@@H](c1ccn(Cc2ccc(OC(F)(F)F)cc2)n1)[C@](O)(Cn1cnnn1)c1ccc(F)cc1F", "organism": "Candidozyma auris", "test": "growth", "system": "791 drug-resistant isolate", "setting": "24 h, 30 °C, ≥50% inhibition", "MIC": "1 µg/mL"}
{"Compound": "CC[C@H](C)[C@H](NC(=O)[C@H](CCCCN)NC(=O)[C@H](CC(N)=O)NC(=O)[C@H](Cc1c[nH]c2ccccc12)NC(=O)[C@H](Cc1ccccc1)NC(=O)[C@H](CCCCN)NC(=O)[C@H](CCCNC(=N)N)NC(=O)[C@H](CC(C)C)NC(=O)[C@H](Cc1c[nH]c2ccccc12)NC(=O)[C@H](CCCCN)NC(=O)[C@H](CCCNC(=N)N)NC(=O)[C@H](CC(C)C)NC(=O)CNC(C)=O)C(=O)N[C@@H](CCCCN)C(=O)N[C@@H](CCCNC(=N)N)C(N)=O", "organism": "Enterobacter aerogenes", "test": "broth microdilution", "system": "multidrug-resistant", "MIC": "6.25 µM"}
{"Compound": "COc1ccc(C2=[N+]([O-])c3ccccc3N3CC(C)(C)CN=C23)cc1", "organism": "Clostridium sporogenes", "test": "microbial growth", "system": "ATCC3584", "MIC": "1 µg/mL"}
{"Compound": "CC[C@H](C)[C@H](NC(=O)[C@H](C)NC(=O)[C@@H](NC(=O)[C@H](CC(=O)O)NC(=O)[C@H](CCCCN)NC(=O)[C@H](CO)NC(=O)[C@@H](NC(=O)[C@H](CC(N)=O)NC(=O)[C@H](C)NC(=O)[C@@H](NC(=O)[C@H](CCC(=O)O)NC(=O)[C@H](CCCCN)NC(=O)[C@@H](NC(=O)[C@@H](NC(=O)[C@H](Cc1c[nH]cn1)NC(=O)[C@H](CCCCN)NC(=O)[C@@H](NC(=O)[C@H](CCCCN)NC(=O)[C@H](CCCCN)NC(=O)[C@@H](NC(=O)[C@H](CC(C)C)NC(=O)[C@H](CCCCN)NC(=O)[C@H](CC(N)=O)NC(=O)[C@H](Cc1ccccc1)NC(=O)[C@H](CCCNC(=N)N)NC(=O)[C@H](CCCCN)NC(=O)[C@H](CCCNC(=N)N)NC(=O)[C@H](Cc1ccccc1)NC(=O)CN)C(C)C)C(C)C)[C@@H](C)O)[C@@H](C)CC)[C@@H](C)O)C(C)C)C(C)C)C(=O)N[C@H](C(=O)N[C@@H](C)C(=O)NCC(=O)N[C@@H](CO)C(=O)NCC(=O)N[C@H](C(=O)N[C@@H](C)C(=O)N[C@H](C(=O)NCC(=O)N[C@@H](C)C(=O)N[C@@H](C)C(=O)N[C@@H](CCSC)C(N)=O)C(C)C)C(C)C)C(C)C", "organism": "Enterobacteriaceae, Acinetobacter baumannii", "system": "reference strains, CAMHB", "MIC": "4 µg/mL"}
{"Compound": "Cc1c2oc3c(C)ccc(C(=O)N[C@@H]4C(=O)N[C@H](C(C)C)C(=O)N5[C@@H](C)CC[C@H]5C(=O)N(C)CC(=O)N(C)[C@@H](C(C)C)C(=O)O[C@@H]4C)c3nc-2c(C(=O)N[C@@H]2C(=O)N[C@H](C(C)C)C(=O)N3[C@@H](C)CC[C@H]3C(=O)N(C)CC(=O)N(C)[C@@H](C(C)C)C(=O)O[C@@H]2C)c(N)c1=O", "organism": "Saccharomyces cerevisiae", "test": "broth microdilution", "system": "ATCC 204508", "setting": "16 to 48 h", "MIC": "> 9.36 µg/mL"}
{"Compound": "[O-][N+]1=C(Cc2ccccc2)C2=NCCCN2c2ccccc21", "organism": "Cutibacterium acnes", "test": "microbial growth", "MIC": "> 32 µg/mL"}
{"Compound": "CN(Cc1cc(C2CC2)on1)C(=O)c1cccc(-c2ccc3c(c2)CCO3)c1", "organism": "Cryptococcus neoformans", "test": "broth microdilution", "system": "H99, RPMI-MOPS", "setting": "37 °C", "MIC": "32 µg/mL"}
{"Compound": "[O-][N+]1=C(c2ccsc2)C2=NCCCN2c2ccccc21", "organism": "Prevotella intermedia/nigrescens", "system": "ATCC 25611", "MIC": "0.25 µg/mL"}
{"Compound": "O=C(/C=C/CI)O[C@@H]1COC(=O)C1", "organism": "Vibrio harveyi", "system": "BB120", "MIC": "105 µM"}
{"note": "A few entries again:"}
{"Compound": "CC[C@H](C)[C@H](NC(=O)[C@H](CCCCN)NC(=O)[C@H](CC(N)=O)NC(=O)[C@H](Cc1c[nH]c2ccccc12)NC(=O)[C@H](Cc1ccccc1)NC(=O)[C@H](CCCCN)NC(=O)[C@H](CCCCNC(=N)N)NC(=O)[C@H](CC(C)C)NC(=O)[C@H](Cc1c[nH]c2ccccc12)NC(=O)[C@H](CCCCN)NC(=O)[C@H](CCCCNC(=N)N)NC(=O)[C@H](CC(C)C)NC(=O)CNC(C)=O)C(=O)N[C@@H](CCCCN)C(=O)N[C@@H](CCCCNC(=N)N)C(N)=O", "organism": "Citrobacter freundii", "test": "bacterial growth, broth microdilution", "system": "multidrug-resistant", "MIC": "3.12 µM"}
{"Compound": "CC(C)C[C@@H]1NC(=O)[C@H](C)NC(=O)[C@H](NC(=O)[C@@H](N)COC(=O)[C@@H](C)NC(=O)[C@@H](CC(C)C)NC(=O)[C@@H](N)Cc2ccccc2)[C@H](C(N)=O)OC(=O)[C@H](CC(C)C)NC1=O", "organism": "Bacillus subtilis Staphylococcus epidermidis", "system": "ATCC 14990", "setting": "tested as TFA salt", "MIC": "> 32 µg/mL"}
